Measured values gathered from unrelated publications.
Numbered parts are unrelated; each lists some results of a single study.
Sequence of UniProt Q9UBX1 (whole entry, looked up): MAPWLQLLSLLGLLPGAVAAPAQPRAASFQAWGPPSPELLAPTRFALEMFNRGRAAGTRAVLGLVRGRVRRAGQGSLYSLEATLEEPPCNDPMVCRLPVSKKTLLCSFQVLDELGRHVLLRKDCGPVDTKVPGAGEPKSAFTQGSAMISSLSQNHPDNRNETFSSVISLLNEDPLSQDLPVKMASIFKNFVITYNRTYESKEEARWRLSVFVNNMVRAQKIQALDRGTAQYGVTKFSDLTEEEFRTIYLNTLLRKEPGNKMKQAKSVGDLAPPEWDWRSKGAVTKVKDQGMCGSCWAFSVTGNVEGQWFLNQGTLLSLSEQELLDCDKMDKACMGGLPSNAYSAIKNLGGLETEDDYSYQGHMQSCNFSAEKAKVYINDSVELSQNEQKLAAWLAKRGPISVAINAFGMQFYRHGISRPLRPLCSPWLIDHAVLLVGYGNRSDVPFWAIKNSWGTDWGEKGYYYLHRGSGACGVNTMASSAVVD

Series 1
Target: HLA class I histocompatibility antigen, A alpha chain, allele A*25:01 (Homo sapiens, UniProt P04439)
Observed: peptide-MHC binding
Form: peptide
Concentration: concentration not given
Sequence	binding
KPKALSEAF	inactive
WLYDLWGQL	inactive
LPVEYLQVP	inactive
MSRKLHRYI	inactive
AVEDFLAFF	inactive
GAWCYDYTV	inactive
RLAKLTEAI	inactive
CLVSGLSSL	inactive

Series 2
Target: UBE2D4 UBC core domain (UniProt Q9Y2X8)
Technique: yeast two-hybrid
Medium: yeast
Setting: mostly zero background
Baseline: not given
Direction: higher = stronger interaction
B1: RNF166 RING domain (UniProt Q96A37); chain GDSGLEAQYTCPICLEVYHRPVAIGSCGHTFCGECLQPCLQVPSPLCPLCRLPFDPKKVDK
B2: TRIM37 RING domain (UniProt O94972); chain SVESIAEVFRCFICMEKLRDARLCPHCSKLCCFSCIRRWLTEQRAQCPHCRAPLQLRELVN
B3: TRIM54 RING domain (UniProt Q9BYV2); chain SMDNLEKQLICPICLEMFSKPVVILPCQHNLCRKCANDVFQASNPLWQSRGSTTVSSGGRFRCPSCRHEVVLDRHGV
B4: TRIM22 RING domain (UniProt Q8IYM9); chain VKVDIEKEVTCPICLELLTEPLSLDCGHSFCQACITAKIKESVIISRGESSCPVCQTRFQPGNLRP
B5: RLIM RING domain (UniProt Q9NVW2); chain SFGENDALKTCSVCITEYTEGNKLRKLPCSHEYHVHCIDRWLSENSTCPICRRAVLASGNRE
B6: RNF122 RING domain (UniProt Q9H9V4); chain AKKLQLYGQTCAVCLEDFKGKDELGVLPCQHAFHRKCLVKWLEVRCVCPMCNKPIASPSEAT
B7: RNF183 RING domain (UniProt Q96D59); chain EQQGRELEAECPVCWNPFNNTFHTPKMLDCCHSFCVECLAHLSLVTPARRRLLCPLCRQPTVLASGQP
Target sequence (chain): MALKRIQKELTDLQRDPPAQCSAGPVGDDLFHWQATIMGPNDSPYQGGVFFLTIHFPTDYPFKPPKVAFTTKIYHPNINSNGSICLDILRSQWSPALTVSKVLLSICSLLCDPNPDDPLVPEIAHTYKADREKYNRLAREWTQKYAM
Sequence	lacZ reporter activity
B1 (RNF166 RING domain)	0
B2 (TRIM37 RING domain)	0
LDAASGHPLVCPLCHGQYERPCLLDCFHDFCTGCLRGRATDGRLSCPLCQHQTLVKGPSG (Rnf207 RING domain (UniProt Q3V3A7))	0
B3 (TRIM54 RING domain)	0
B4 (TRIM22 RING domain)	0
B5 (RLIM RING domain)	0
B6 (RNF122 RING domain)	0
B7 (RNF183 RING domain)	0

Mixed results
B8: cystatin C; sequence looked up; chain SSPGKPPRLVGGPMDASVEEEGVRRALDFAVGEYNKASNDMYHSRALQVVRARKQIVAGVNYFLDVELGRTTCTKTQPNLDNCPFHDQPHLKRKAFCSFQIYAVPWQGTMTLSKSTCQDA
Substance	tested on	assay	setting	scale	quantity	result
B8 (cystatin C)	Cathepsin F (Homo sapiens, UniProt Q9UBX1)	enzyme activity	0.1 µM	–	inhibition	20%
O=C([O-])/C=C/C(=O)[O-].[Fe+2]	HEK-293T-ACE2	–	concentration not given	baseline: vehicle	cell number	84.8%

A few entries again (series 1):
Sequence	binding
LPVEYLQVP	inactive
WLYDLWGQL	inactive
